Published values of several laboratories.
Lines come from different studies, so protocols differ. ± marks the error that the study gave. Values after ≈ are worked out from the molar mass of the structure shown.

For `C#Cc1c(F)ccc2cc(O)cc(-c3ncc4c(N5CC6CCC(C5)N6C(=O)OCCCCC)nc(OC[C@@]56CCCN5C[C@H](F)C6)nc4c3F)c12`, the half-life was 2.32 h (metabolic stability; mouse, liver microsomes; 1 µM, pH 7.4).
For `CCNc1cc2[o+]c3cc(NCC)c(C)cc3c(-c3ccccc3C(=O)OCCOCC[18F])c2cc1C`, the tissue uptake was 0.15 ± 0.02 %ID/g (rat, skin; 30 min).
`CC(C)[C@H](NC(=O)CNC(=O)[C@H](CCC(N)=O)NC(=O)[C@H](C)N)C(=O)O` — result for “subjects with adverse events”: 0% (Probably drug-related; human; 30 mg/kg, 3 days, thrice daily dosing).
`NS(=O)(=O)NCC(O)c1ccccc1F` (stereo not drawn) has a TD50 of over 500 mg/kg (rotarod impairment; mouse; intraperitoneal).
For `COC(=O)C[C@](O)(CCCC(C)(C)OC(C)=O)C(=O)O[C@@H]1C(OC)=C[C@]23CCCN2CCc2cc4c(cc2[C@H]13)OCO4`, tissue concentration read “not detected” (CD1 mouse, liver; subcutaneous, 1 mg/kg, 24 h, below quantification limit 1.00 ng/mL).
The AUC(0-24 h) of `C[C@H](CCC(=O)N[C@@H](CCCCNC(=O)C(F)(F)F)C(=O)O)[C@H]1CC[C@H]2[C@@H]3[C@H](O)C[C@@H]4C[C@H](O)CC[C@]4(C)[C@H]3C[C@H](O)[C@]12C` is reported as 143000 µM·h (C57BL/6J mice, gallbladder; oral, 50 mg/kg).
The intrinsic clearance of `CN(C(=O)CC1CCCCC1)[C@@H]1CCCC[C@H]1N1CCCC1` is reported as 5.2 mL/min/g (mouse liver microsomes).
For `Cc1cc(-c2ccc3ccccc3c2)nnc1NCCN1CCN(C)CC1`, the half-life was 5.82 h (rat; oral, dose not given).
Under “MTD, highest dose level”, `CSCC[C@H](NC(=O)CNC(=O)[C@H](CC(=O)O)NC(=O)[C@@H](NC(=O)[C@@H](NC(=O)[C@@H](NC(=O)CNC(=O)[C@H](CCC(N)=O)NC(=O)[C@H](CCSC)NC(=O)[C@H](CC(=O)O)NC(=O)[C@H](C)NC(=O)[C@H](C)NC(=O)[C@@H](NC(=O)[C@H](CO)NC(=O)[C@@H](N)CC(C)C)[C@@H](C)O)C(C)C)C(C)C)[C@@H](C)O)C(=O)N[C@@H](C)C(=O)N[C@@H](CO)C(=O)NCC(=O)N[C@@H](CC(C)C)C(=O)N[C@@H](CC(=O)O)C(=O)N[C@@H](CCCCN)C(=O)N[C@@H](CC(=O)O)C(=O)N[C@@H](Cc1ccc(O)cc1)C(=O)N[C@@H](CC(C)C)C(=O)N[C@@H](CCCCN)C(=O)N1CCC[C@H]1C(=O)N[C@@H](CC(=O)O)C(=O)N[C@@H](CC(=O)O)C(=O)O` is recorded as over 50 mg/kg total (p53-positive advanced solid tumour patients; IV, 12 doses).
`CCCCCCCCCCCCC(=O)O.O=C1CCCC2C3CCCN4CCCC(CN12)C34` (stereo not drawn): “standard Gibbs energy of aggregation” -35.5 kJ/mol (electrical conductivity; water; 303.15 K).
`CC(C)[C@H](NC(=O)CNC(=O)[C@H](CCC(N)=O)NC(=O)[C@H](C)N)C(=O)O`: “discontinuation due to AE” 0% (healthy male volunteers; intravenous, 90 mg/kg/h, 2 h, together with: LPS 2 ng/kg).
The oral bioavailability of `CNC(=O)c1cccc(-c2ccc(O[C@H]3O[C@H](CO)[C@@H](O)[C@H](O)[C@@H]3O)c(C)c2)c1` is reported as 1.4% (rat; oral, 10 mg/kg, 10% cyclodextrin).
The tissue uptake of `N=C(N)NCc1ccc(C(=O)NCCCC[C@H](NC(=O)CCCCCCC(=O)NCCCC[C@H](NC(=O)N[C@@H](CCC(=O)O)C(=O)O)C(=O)O)C(=O)O)cc1[131I]` is reported as 0.03 ± 0.02 %ID/g (SCID mouse, PC-3 xenografts, muscle; 21 h).
`CSCC[C@@H]1NC(=O)[C@@H]2CSSC[C@H](NC(=O)[C@H](CO)NC(=O)[C@H](C)N)C(=O)N[C@@H](CCCNC(=N)N)C(=O)N[C@@H]([C@@H](C)O)C(=O)N3CCC[C@H]3C(=O)N[C@@H](CCCCN)C(=O)N[C@@H](CC(=O)O)C(=O)N[C@H]3CSSC[C@H](NC(=O)[C@H](CCCCN)NC(=O)[C@H](CCCNC(=N)N)NC(=O)[C@H](CC(N)=O)NC1=O)C(=O)N[C@@H](CCCCN)C(=O)N[C@H]1CSSC[C@H](NC(=O)[C@@H]4CCCN4C(=O)[C@H](CC(=O)O)NC(=O)[C@H](C)NC3=O)C(=O)N[C@@H](C)C(=O)N[C@@H](CCCCN)C(=O)N[C@@H](CCC(=O)O)C(=O)N[C@@H]([C@@H](C)O)C(=O)NCC(=O)N[C@@H](CSSC[C@@H](C(N)=O)NC(=O)[C@H](CCCNC(=N)N)NC(=O)[C@H](CC(N)=O)NC1=O)C(=O)N1CCC[C@H]1C(=O)N[C@@H](Cc1ccc(O)cc1)C(=O)NCC(=O)N[C@@H](CCCCN)C(=O)N2` gave a Phosphorus of 3.98 mg/dL (DA rat pristane-induced arthritis, serum; subcutaneous, 0.1 mg/kg once weekly, 21 days).
With `CC[C@H](C)[C@@H]1NC(=O)[C@H](CCCCN)NC(=O)[C@H](CCCCN)NC(=O)[C@H](Cc2ccc(O)cc2)NC(=O)[C@H](CC(C)C)NC(=O)[C@@H]2CCCN2C(=O)[C@H](C)NC(=O)CNC(=O)CNC(=O)[C@H](CO)NC(=O)CNC(=O)CNC(=O)[C@H](CO)NC(=O)[C@H](CCCCN)NC(=O)[C@H](CC(C)C)NC(=O)[C@H](CC(C)C)NC(=O)[C@H](CCCCN)NC(=O)[C@H](CCCCN)NC(=O)[C@H]([C@@H](C)CC)NC(=O)[C@H]([C@@H](C)CC)NC(=O)[C@H](CCCCN)NC(=O)[C@H](CCCCN)NC(=O)[C@H](Cc2ccc(O)cc2)NC(=O)[C@H](CC(C)C)NC(=O)[C@@H]2CCCN2C(=O)[C@H](C)NC(=O)CNC(=O)CNC(=O)[C@H](CO)NC(=O)CNC(=O)CNC(=O)[C@H](CO)NC(=O)[C@H](CCC(=O)O)NC(=O)[C@H](CC(C)C)NC(=O)[C@H](CC(C)C)NC(=O)[C@H](CCCCN)NC(=O)[C@H](CCCCN)NC(=O)[C@H]([C@@H](C)CC)NC1=O` the HC10 was over 100 µM (hemolysis; uninfected human erythrocytes; 1 h).
`Cc1ccc(/C=C/C(=O)O)cc1-c1cc2c(cc1C)C(C)(C)CCC2(C)C` gave a blood triglycerides of 109 ± 16.4 mg/dL (Sprague-Dawley rat, male; oral, 100 mg/kg, 24 h, sesame oil vehicle).
`CCN(Cc1ccccc1)C(=O)CCc1nc(CN2CCN(C(=O)Cc3ccc(OC)c(OC)c3)CC2)no1` gave a concentration of 0.223 µg/mL (rat, plasma; intravenous, 1 mg/kg, 15 min).
For `CC1(O)CC23CC(O)C4(O)C(C5OC5C4(C)C)C(C)(O)C2CCC1C3O` (stereo not drawn), the cumulative release was 95% (dialysis; PBS; 24 h, pH 6.8, 37 °C).
Under “subjects with treatment-emergent photophobia”, `CC[C@H](C)C(=O)N1CCC(NC(=O)Nc2ccc(OC(F)(F)F)c(F)c2)CC1` is recorded as 7.1% (healthy volunteers, both sexes; oral, 8 mg, fed state).
The tissue concentration of `C/C=C/C=C/C/C=C/CCCCCCCc1cccc(O)c1O` is reported as 31200 ± 3110 ng/g (female Kunming mice, tumour-bearing, liver; intravenous, 10 mg/kg, 1 h).
`CC(=O)[O-].CN1CCCN2CCN(C)CCCN(CC1)CC2.F[P-](F)(F)(F)(F)F.[Co+2]` gave an E1/2 of 0.246 V (cyclic voltammetry, refers to: first Co2+/Co3+ couple; acetonitrile; baseline: SHE).
The serum albumin of `CN(C)C(CNC(=O)Nc1cc(C(F)(F)F)ccc1N1CCOCC1)c1ccncc1` (stereo not drawn) is reported as 2.3 g/dL (mouse, serum; intraperitoneal, 360 mg/kg single dose).
`CC(C)[C@@H](CN1CC[C@@](C)(c2cccc(C(N)=O)c2)[C@@H](C)C1)NC(=O)[C@H]1Cc2ccc(O)cc2CN1` gave a kinetic solubility of over 20% (10 mM phosphate buffer; 90 min, pH 7.4).
`O=C(O)CC[C@H](NC(=O)O[C@@H](CCCCNC(=O)c1ccc([18F])cc1)C(=O)O)C(=O)O` gave a tissue uptake of 0.08 ± 0.06 %ID/g (mouse, PC-3 PIP/flu xenografts, blood; 180 min).
With `COc1cc2c3c(c4cc(OC)c(OC)cc4c2cc1OC)CN1CCCCC1C3` (stereo not drawn) the half-life was about 4 h (Sprague-Dawley rats, male; intravenous, dose not given).
With `N#Cc1ccc(NC(=O)c2cccnc2)cc1Cl` the thermodynamic solubility was 0.0393 ± 0.0058 mg/mL (≈ 153 µM) (PBS; 24 h, pH 7.4, room temperature).
For `[2H]C([2H])([2H])C([2H])([2H])C([2H])([2H])OC(C(=O)OC1CCNCC1)(c1ccccc1)c1ccccc1`, the Tmax was 3.1 h (male human, plasma; oral, 8 mg, multiple doses).
With `C[C@@H]1CC[C@H]2[C@@H](C)CO[C@@H]3O[C@@]4(C)CC[C@@H]1[C@]32OO4` the stability accuracy was 97.4% (refers to: compound; rat, plasma; 50.0 ng/mL spiked, 30 days, long-term storage at -80 °C).
Under “body weight gain”, `O=c1c2cc(Cl)ccc2sc2c(NCc3ccccc3)nc3ccccc3c12` is recorded as 2.45 ± 0.02% (BALB/c nude mice; i.p., 30 mg/kg).
`CN[C@](C)(C[18F])C(=O)O` gave a tracer uptake of 1.5 %ID/g (mouse, muscle; 15 min, tumour-bearing).

A few entries again:
The AUC(0-24 h) of `C[C@H](CCC(=O)N[C@@H](CCCCNC(=O)C(F)(F)F)C(=O)O)[C@H]1CC[C@H]2[C@@H]3[C@H](O)C[C@@H]4C[C@H](O)CC[C@]4(C)[C@H]3C[C@H](O)[C@]12C` is reported as 143000 µM·h (C57BL/6J mice, gallbladder; oral, 50 mg/kg).
The intrinsic clearance of `CN(C(=O)CC1CCCCC1)[C@@H]1CCCC[C@H]1N1CCCC1` is reported as 5.2 mL/min/g (mouse liver microsomes).
For `Cc1cc(-c2ccc3ccccc3c2)nnc1NCCN1CCN(C)CC1`, the half-life was 5.82 h (rat; oral, dose not given).
